Results pooled from the literature.
± marks the error that the study gave.
Cell line: K562

`O=C1c2ccc(O)cc2OC1(O)Cc1ccc(O)c(O)c1` (stereo not drawn) has a selectivity ratio of greater than 3.1 (MTT; 72 h; baseline: IC50 MRC5 over IC50 K562).
`CC(Cc1ccc(Cl)cc1)=C(c1ccc(Cl)cc1)c1ccc(OCCN(C)C)cc1` has a GI50 of 0.98 µM (cell growth or viability).
`COc1ccc2c(c1)/C(=N\Nc1nnc3n1N=C(c1ccccc1)CS3)C(=O)N2` gave an inhibition of 85% (cell growth or viability, SRB; 10 µM).
`COc1cc(O)c(C(=O)/C=C/c2ccc(O)cc2)c(OC)c1` gave an IC50 of 8 µM (NF-κB activity, inhibitor, luciferase; TNF-stimulated).
For `COc1ccc(C2=Nn3c(NN=C4C(=O)N(C)c5ccc(Br)cc54)nnc3SC2)cc1`, the inhibition was 33% (cell growth or viability, SRB; 10 µM).
`COc1ccc(CN2C(=O)C(=O)c3cc(NC(C)=O)ccc32)cc1` has an apoptotic cells of 51.1% (Annexin V/PI; 1 µM, 48 h).
`O=C(/C=C/c1ccc(O)cc1)c1ccc(O)cc1O` gave an IC50 of 32 µM (NF-κB activity, inhibitor, luciferase; TNF-stimulated).
`O=C(CSc1nc2ccccc2s1)Nc1nonc1[N+](=O)[O-]` gave a GI50 of 27.6 µM (cell growth or viability, ATP luminescence).
The EC50 of `C(=C/c1ccccc1)/c1ccccc1` is reported as 410 µM (apoptosis, Hoechst nuclear staining; 24 h, 50% apoptosis induction).
`COc1cc(/C=C/C(=O)/C=C(O)/C=C/c2ccc(OCC(=O)N3CCOCCOCCOCCOCC3)c(OC)c2)ccc1OCC(=O)N1CCOCCOCCOCCOCC1` has an inhibition of 22.4% (cell growth or viability, SRB; 5 µM).
For `CC(=O)OC[C@H]1O[C@@H](Sc2sc(C(=O)c3ccc(C)cc3)c(N)c2-c2nc3ccccc3s2)[C@H](OC(C)=O)[C@@H](OC(C)=O)[C@H]1OC(C)=O`, the growth was 90.6% (SRB; 10 µM, 48 h).
`COc1cc(/C=C/C(=O)c2ccc(O)cc2O)ccc1O` has an IC50 of 29 µM (cell viability).
`CC(C)CCCC(C)C1CCC2C3CC=C4CC(OC(=O)CCC(=O)NCCCCCCNC(=O)O[C@H]5[C@@H](O)[C@H](n6cnc7c(=O)[nH]c(N)nc76)O[C@@H]5COP(=O)(O)OP(=O)(O)OP(=O)([S-])OC[C@H]5O[C@@H](n6c[n+](C)c7c(O)nc(N)nc76)[C@H](O)[C@@H]5O)CCC4(C)C3CCC12C` (mixture of isomers) has an apoptotic cells of 60.8 ± 3.2% (annexin V/PI flow cytometry; 20 µM, 20 h).
`O=C(/C=C/c1ccccc1)c1ccccc1` has an IC50 of 14 µM (cell viability).
The growth of `CC(=O)OC[C@H]1O[C@@H](Sc2sc(C(=O)c3ccc(Br)cc3)c(N)c2-c2nc3ccccc3s2)[C@H](OC(C)=O)[C@@H](OC(C)=O)[C@H]1OC(C)=O` is reported as 92.2% (SRB; 10 µM, 48 h).
`O=C(/C=C/c1ccccc1O)c1ccccc1` has an IC50 of 2 µM (cell viability).
For `Cc1ccc(C2=Nn3c(N/N=C4/C(=O)Nc5ccc(Br)cc54)nnc3SC2)cc1`, the inhibition was 14% (cell growth or viability, SRB; 10 µM).
For `COc1ccc(/C=C/C(=O)c2ccccc2)cc1`, the IC50 was 35 µM (cell viability).
`CC/C=C\C/C=C\C/C=C\C/C=C\C/C=C\C/C=C\CCC(=O)Nc1ccn(C2OC(CO)C(O)C2(F)F)c(=O)n1` (stereo not drawn) has a GI50 of 0.0674 µM (cell growth or viability, SRB).
The IC50 of `COc1ccc(/C=C/C(=O)c2c(O)cc(OC)cc2O)cc1` is reported as greater than 200 µM (NF-κB activity, inhibitor, luciferase; TNF-stimulated).
With `COc1cc2c(c(OC)c1OC)CC(Cc1ccc3c(c1)OCCO3)C2` (stereo not drawn) the inhibition was 3.98% (cell growth or viability, CCK-8; 0.1 µM, 72 h).

Excerpt of the above:
`CC(Cc1ccc(Cl)cc1)=C(c1ccc(Cl)cc1)c1ccc(OCCN(C)C)cc1` has a GI50 of 0.98 µM (cell growth or viability).
